{"data": "Results pooled from the literature", "ZBTB11/CRBN": "ZBTB11/CRBN (Homo sapiens, UniProt O95625+Q96SW2)", "NLK": "Serine/threonine-protein kinase NLK (NLK, Homo sapiens, UniProt Q9UBE8)", "note": "Compare with care: the assays were run in different laboratories. Several values in a cell are separate wells, animals, samples, runs or records. ± marks the error that the study gave.", "sequence of UniProt Q64663 (whole entry, unmodified, looked up)": "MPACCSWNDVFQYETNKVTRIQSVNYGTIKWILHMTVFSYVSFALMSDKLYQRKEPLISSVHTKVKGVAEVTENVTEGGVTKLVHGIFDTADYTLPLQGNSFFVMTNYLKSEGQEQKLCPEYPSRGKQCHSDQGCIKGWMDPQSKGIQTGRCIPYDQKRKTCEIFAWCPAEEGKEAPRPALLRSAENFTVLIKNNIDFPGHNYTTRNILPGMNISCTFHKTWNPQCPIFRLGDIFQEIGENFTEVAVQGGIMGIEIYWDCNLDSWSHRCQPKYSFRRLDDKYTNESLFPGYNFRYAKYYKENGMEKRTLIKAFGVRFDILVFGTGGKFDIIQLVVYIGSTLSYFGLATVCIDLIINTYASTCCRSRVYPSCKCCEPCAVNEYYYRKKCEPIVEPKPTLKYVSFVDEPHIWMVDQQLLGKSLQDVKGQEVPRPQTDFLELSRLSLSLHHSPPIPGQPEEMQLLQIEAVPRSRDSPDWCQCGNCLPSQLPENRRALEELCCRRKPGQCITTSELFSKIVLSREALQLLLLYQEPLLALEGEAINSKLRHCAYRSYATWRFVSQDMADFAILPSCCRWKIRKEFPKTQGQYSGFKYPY", "sequence of UniProt P32239 (whole entry, looked up)": "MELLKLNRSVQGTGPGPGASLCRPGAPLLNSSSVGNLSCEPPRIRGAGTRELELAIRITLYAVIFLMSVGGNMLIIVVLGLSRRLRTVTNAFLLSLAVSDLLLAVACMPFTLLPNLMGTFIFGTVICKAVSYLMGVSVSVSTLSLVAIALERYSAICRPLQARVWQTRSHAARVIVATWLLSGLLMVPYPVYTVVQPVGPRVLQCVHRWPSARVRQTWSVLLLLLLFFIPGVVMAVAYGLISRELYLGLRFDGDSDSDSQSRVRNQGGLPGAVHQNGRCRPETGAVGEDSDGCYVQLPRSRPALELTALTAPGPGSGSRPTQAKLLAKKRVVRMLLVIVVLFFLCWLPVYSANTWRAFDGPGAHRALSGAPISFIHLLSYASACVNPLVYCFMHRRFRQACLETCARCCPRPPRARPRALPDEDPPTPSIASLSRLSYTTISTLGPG", "sequence of UniProt Q562R1 (whole entry, looked up)": "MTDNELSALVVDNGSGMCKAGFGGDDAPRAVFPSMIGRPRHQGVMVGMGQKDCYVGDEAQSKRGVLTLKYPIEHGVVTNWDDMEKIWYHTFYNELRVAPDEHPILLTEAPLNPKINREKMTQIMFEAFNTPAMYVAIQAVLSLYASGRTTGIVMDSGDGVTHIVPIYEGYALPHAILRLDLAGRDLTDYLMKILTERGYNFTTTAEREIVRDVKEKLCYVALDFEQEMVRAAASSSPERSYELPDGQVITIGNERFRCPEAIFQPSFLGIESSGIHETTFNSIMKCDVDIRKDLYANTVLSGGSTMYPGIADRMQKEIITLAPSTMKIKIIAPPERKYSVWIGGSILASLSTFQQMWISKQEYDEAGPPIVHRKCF", "sequence of UniProt Q16774 (whole entry, looked up)": "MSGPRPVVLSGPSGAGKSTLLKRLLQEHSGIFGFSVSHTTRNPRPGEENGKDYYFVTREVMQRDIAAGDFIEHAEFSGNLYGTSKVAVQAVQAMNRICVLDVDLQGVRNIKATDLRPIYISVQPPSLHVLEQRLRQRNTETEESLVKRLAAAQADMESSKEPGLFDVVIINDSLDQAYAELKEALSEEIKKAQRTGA", "sequence of UniProt Q9UBE8 (whole entry, looked up)": "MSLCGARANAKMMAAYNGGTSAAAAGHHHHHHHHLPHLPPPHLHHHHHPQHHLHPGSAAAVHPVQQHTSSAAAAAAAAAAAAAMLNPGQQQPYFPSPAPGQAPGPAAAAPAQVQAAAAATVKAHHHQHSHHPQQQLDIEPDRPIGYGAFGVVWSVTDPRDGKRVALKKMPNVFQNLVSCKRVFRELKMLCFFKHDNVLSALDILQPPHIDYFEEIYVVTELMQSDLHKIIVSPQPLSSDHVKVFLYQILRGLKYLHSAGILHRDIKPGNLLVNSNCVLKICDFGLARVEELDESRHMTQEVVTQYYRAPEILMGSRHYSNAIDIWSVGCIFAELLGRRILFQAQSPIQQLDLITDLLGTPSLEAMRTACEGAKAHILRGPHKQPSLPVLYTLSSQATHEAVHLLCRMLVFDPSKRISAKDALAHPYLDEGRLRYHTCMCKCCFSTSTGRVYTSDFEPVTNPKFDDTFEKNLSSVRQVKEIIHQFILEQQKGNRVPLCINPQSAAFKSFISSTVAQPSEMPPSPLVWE", "sequence of UniProt Q5U3Y7 (whole entry, looked up)": "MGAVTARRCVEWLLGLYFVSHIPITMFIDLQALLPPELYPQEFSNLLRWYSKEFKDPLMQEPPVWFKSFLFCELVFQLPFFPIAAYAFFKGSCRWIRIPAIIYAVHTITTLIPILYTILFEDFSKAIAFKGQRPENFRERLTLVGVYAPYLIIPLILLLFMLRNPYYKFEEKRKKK", "sequence of UniProt O95625 (whole entry, looked up)": "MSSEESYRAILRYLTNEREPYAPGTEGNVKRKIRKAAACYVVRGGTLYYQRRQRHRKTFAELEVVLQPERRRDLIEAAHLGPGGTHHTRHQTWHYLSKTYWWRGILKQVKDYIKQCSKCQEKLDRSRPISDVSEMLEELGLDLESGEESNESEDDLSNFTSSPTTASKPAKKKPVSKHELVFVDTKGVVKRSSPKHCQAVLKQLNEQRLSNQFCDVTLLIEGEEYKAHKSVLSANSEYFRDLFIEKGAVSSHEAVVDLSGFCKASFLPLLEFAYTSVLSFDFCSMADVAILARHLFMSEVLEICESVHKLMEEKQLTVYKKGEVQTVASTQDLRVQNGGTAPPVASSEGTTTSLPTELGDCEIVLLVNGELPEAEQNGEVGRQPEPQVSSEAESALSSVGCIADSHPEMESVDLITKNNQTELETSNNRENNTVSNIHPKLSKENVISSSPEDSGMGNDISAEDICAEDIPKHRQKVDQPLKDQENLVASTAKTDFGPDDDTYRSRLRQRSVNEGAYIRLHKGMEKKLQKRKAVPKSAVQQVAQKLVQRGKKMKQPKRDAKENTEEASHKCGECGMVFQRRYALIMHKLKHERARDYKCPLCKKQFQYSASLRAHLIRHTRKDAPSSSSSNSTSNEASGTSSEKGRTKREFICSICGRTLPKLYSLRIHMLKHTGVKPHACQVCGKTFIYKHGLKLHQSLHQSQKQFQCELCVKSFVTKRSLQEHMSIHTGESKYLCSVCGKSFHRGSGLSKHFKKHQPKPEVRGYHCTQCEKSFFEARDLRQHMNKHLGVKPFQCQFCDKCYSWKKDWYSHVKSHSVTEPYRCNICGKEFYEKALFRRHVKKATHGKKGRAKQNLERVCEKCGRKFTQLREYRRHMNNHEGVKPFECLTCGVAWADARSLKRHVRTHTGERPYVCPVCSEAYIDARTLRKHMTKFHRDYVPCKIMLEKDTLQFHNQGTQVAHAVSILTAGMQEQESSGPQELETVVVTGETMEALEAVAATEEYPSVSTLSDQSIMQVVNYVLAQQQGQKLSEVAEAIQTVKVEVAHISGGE", "sequence of UniProt P20393 (whole entry, looked up)": "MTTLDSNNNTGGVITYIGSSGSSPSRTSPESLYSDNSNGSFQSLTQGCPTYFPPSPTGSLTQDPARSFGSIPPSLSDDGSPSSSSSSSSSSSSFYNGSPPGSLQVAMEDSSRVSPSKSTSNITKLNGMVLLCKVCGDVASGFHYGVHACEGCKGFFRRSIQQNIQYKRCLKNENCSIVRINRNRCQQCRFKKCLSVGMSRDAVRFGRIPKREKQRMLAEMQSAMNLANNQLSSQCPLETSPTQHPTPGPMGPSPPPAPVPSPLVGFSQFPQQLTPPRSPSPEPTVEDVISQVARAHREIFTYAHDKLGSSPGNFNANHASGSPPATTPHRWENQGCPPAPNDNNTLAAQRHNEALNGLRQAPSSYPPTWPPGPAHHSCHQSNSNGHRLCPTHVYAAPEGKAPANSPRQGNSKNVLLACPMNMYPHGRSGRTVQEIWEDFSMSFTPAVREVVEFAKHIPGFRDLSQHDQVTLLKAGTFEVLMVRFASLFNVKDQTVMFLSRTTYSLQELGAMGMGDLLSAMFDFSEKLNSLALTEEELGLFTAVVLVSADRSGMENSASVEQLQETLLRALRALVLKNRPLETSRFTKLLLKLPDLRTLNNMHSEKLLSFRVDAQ", "sequence of UniProt P00441 (whole entry, unmodified, looked up)": "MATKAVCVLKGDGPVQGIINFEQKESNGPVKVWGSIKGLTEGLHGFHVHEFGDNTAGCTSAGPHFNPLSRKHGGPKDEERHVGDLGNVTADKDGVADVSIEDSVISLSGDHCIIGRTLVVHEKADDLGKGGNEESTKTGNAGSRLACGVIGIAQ", "sequence of UniProt Q96SW2 (whole entry, looked up)": "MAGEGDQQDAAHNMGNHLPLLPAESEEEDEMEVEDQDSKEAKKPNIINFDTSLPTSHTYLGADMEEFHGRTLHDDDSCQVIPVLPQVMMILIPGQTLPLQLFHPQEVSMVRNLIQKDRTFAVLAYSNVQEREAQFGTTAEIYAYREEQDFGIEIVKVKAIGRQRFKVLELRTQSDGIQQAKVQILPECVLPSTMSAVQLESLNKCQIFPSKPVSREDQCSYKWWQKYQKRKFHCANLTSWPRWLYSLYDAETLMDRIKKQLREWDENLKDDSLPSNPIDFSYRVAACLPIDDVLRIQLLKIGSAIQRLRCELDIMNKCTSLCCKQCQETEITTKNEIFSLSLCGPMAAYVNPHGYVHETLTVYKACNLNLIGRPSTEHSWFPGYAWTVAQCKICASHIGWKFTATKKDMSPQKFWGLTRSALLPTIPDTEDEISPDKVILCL", "sequence of UniProt O43570 (whole entry, looked up)": "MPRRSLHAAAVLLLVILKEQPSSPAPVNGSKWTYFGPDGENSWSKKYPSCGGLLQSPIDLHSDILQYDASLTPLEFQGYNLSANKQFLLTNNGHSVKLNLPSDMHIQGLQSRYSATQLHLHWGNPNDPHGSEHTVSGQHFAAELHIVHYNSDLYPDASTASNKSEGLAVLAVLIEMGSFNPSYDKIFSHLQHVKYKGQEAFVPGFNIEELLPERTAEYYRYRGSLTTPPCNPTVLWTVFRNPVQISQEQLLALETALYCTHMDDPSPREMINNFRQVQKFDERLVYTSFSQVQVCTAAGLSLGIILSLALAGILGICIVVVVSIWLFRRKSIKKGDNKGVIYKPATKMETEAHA"}
{"SMILES": "CN1CCN(c2cc(-c3ccncc3)c(-c3ccc4ccccc4c3)nn2)CC1", "target or system": "C5AR1 (Homo sapiens, UniProt P21730)", "test": "agonist, FLIPR", "conditions": "12.5 µM", "endpoint": "activation", "value": "-2.1%"}
{"SMILES": "CC(=O)N[C@H](C(=O)N1C[C@H](O)C[C@H]1C(=O)NCc1ccc(-c2scnc2C)cc1)C(C)(C)SCCCCCCNC(=O)C[C@@H]1N=C(c2ccc(Cl)cc2)c2c(sc(C)c2C)-n2c(C)nnc21", "target or system": "Bromodomain-containing protein 3, BD2 (BRD3, Homo sapiens, UniProt Q15059)", "test": "binding, ITC", "conditions": "25 °C, compound in cell, protein in syringe", "endpoint": "ΔH", "value": "-12.73 ± 0.04 kcal/mol"}
{"SMILES": "COc1cc(Nc2ncc3c(n2)-c2ccc(Cl)cc2C(c2c(F)cccc2OC)=NC3)ccc1C(=O)O", "target or system": "MUSK", "test": "kinase activity", "conditions": "1 µM", "endpoint": "remaining activity", "value": "48%"}
{"SMILES": "C=C1C(=O)O[C@@H]2C[C@@]3(C)CCCC(=C)[C@@H]3C[C@H]12", "target or system": "NR1D1 (Homo sapiens, UniProt P20393)", "test": "reporter gene, Gal4 hybrid reporter", "conditions": "10 µM", "scale": "relative to: vehicle", "endpoint": "activation", "value": "1.23 fold"}
{"SMILES": "Nc1ncnc2c1ncn2[C@@H]1O[C@H](CSCC[C@H](N)C(=O)O)[C@@H](O)[C@H]1O", "target or system": "DNA adenine methyltransferase CamA (Clostridioides difficile, UniProt Q183J3)", "test": "ITC", "conditions": "concentration not given, together with: 50 µM DNA", "scale": "relative to: without DNA", "endpoint": "cofactor binding decrease", "value": "~2"}
{"SMILES": "COc1cc(/C=C/c2ccc(O)cc2)cc(OC)c1", "target or system": "O-methyltransferase (Sorghum bicolor, UniProt A0A1B6PFV1)", "test": "isothermal titration calorimetry", "conditions": "concentration not given, apo protein", "endpoint": "ΔH of binding", "value": "-6.26 ± 0.221 kcal/mol"}
{"SMILES": "CC1=C(Nc2cccc(C3(NCCc4ccc(C(F)(F)F)c(Cl)c4)CCC3)c2)C(=O)N(C2CCC(=O)NC2=O)C1=O (stereo not shown)", "target or system": "ZBTB11/CRBN", "test": "protein degradation, degrader, HiBiT luminescence", "system": "MOLT-4", "endpoint": "Dmax", "value": "50%"}
{"SMILES": "c1ccc(C(NCc2cccnc2)(c2ccccc2)c2ccccc2)cc1", "target or system": "KCNQ1 (Homo sapiens, UniProt P51787, E160R/R237E)", "test": "concentration-response, tail currents", "conditions": "AO state-locked mutant", "endpoint": "Hill coefficient", "value": 0.49}
{"SMILES": "COc1cc(F)ccc1-c1ncnc(Nc2cccc(C[S@](C)(=N)=O)c2)n1", "target or system": "NLK", "test": "kinase activity", "conditions": "10 µM, together with: 10 µM ATP", "endpoint": "remaining activity", "value": "94%"}
{"SMILES": "COc1cc2c(cc1OC)CN(C(C)CCc1ccc(O)cc1)CC2 (stereo not shown)", "target or system": "Tmem97 (Rattus norvegicus, UniProt Q5U3Y7)", "test": "binding", "scale": "relative to: Ki sigma-1 over Ki sigma-2", "endpoint": "selectivity ratio", "value": "22 and ~22"}
{"SMILES": "O=C(COP(=O)(O)O)[C@@H](O)[C@H](O)[C@H](O)COP(=O)(O)O", "target or system": "Beta-actin-like protein 2 (ACTBL2, Homo sapiens, UniProt Q562R1)", "test": "thermal proteome profiling, measured: ACTBL2", "system": "HepG2 cell lysate", "conditions": "concentration not given, 57 over 37 °C", "scale": "relative to: compound over control", "endpoint": "thermal stability ratio", "value": "0.588 and 0.583 and 0.923"}
{"SMILES": "Nc1ncnc2c1ncn2[C@@H]1O[C@H](COP(=O)(O)OP(=O)(O)OP(=O)(O)O)[C@@H](O)[C@H]1O", "target or system": "P2X purinoceptor 7 (P2rx7, Rattus norvegicus, UniProt Q64663, I214A)", "test": "ion current, agonist, two-electrode voltage clamp", "system": "Xenopus laevis oocytes", "conditions": "33.3 µM", "scale": "relative to: highest concentration response", "endpoint": "normalized current", "value": "0.13 and 0.174 and 0.0791"}
{"SMILES": "Cc1nn(CCc2ccccc2)c2ncc(C(=O)NCc3ccncc3)c(Cl)c12", "target or system": "PREP (Homo sapiens, UniProt P48147)", "test": "intact protein MS", "conditions": "50 µM, 4 h, 37 °C", "endpoint": "protein adduct formation", "value": "7%"}
{"SMILES": "CC(NC(=O)CCCc1ccc2ccc3cccc4ccc1c2c34)C(=O)NO (stereo not shown)", "target or system": "HDAC8 (Homo sapiens, UniProt Q9BY41)", "test": "ITC", "system": "Tris-HCl buffer", "conditions": "concentration not given, 293 K", "endpoint": "binding stoichiometry", "value": 0.95}
{"SMILES": "C=CC(=O)N1CCC(COCC(=O)N2CCN(c3nc(-c4cnc(N)nc4C(F)F)nc(N4CCOC[C@@H]4C)n3)CC2)CC1", "target or system": "NLK", "test": "KINOMEscan", "conditions": "1 µM", "endpoint": "remaining binding", "value": "100%"}
{"SMILES": "Cc1c(Cl)c(=O)oc2cc(OCCCCSC#N)ccc12", "target or system": "CA12 (Homo sapiens, UniProt O43570)", "test": "stopped-flow CO2 hydration", "scale": "relative to: Ki CA II over Ki CA XII", "endpoint": "selectivity ratio", "value": "> 1690"}
{"SMILES": "NCCS(=O)(=O)O", "test": "binding, equilibrium dialysis LC-MS", "conditions": "5 µM, thermostabilized A2AR-BRIL construct", "scale": "relative to: no-protein control, direction not given", "endpoint": "z-scored log2 fold change", "value": 0.201}
{"SMILES": "Nc1nc2c(ncn2[C@@H]2O[C@H](COP(=O)(O)O)[C@@H](O)[C@H]2O)c(=O)[nH]1", "target or system": "GUK1 (Homo sapiens, UniProt Q16774)", "test": "enzyme activity, NADH-coupled", "conditions": "31.25 µM, together with: NaCl 150 mM", "endpoint": "reaction velocity", "value": "0.0496 µM/s and 0.0294 µM/s and 0.0446 µM/s"}
{"SMILES": "O=c1nc(SCc2cc(F)cc(C(F)(F)F)c2)nc(SCc2csc3ccc(Cl)cc23)[nH]1", "target or system": "TOP2B (Homo sapiens, UniProt Q02880)", "test": "decatenation", "conditions": "7.8 µM", "endpoint": "mean decatenated DNA", "value": "71.9%"}
{"SMILES": "O=[N+]([O-])c1cc(C(F)(F)F)ccc1NCc1ccsc1", "target or system": "Endothelial PAS domain-containing protein 1, PAS-B domain (EPAS1, Homo sapiens, UniProt Q99814, N288Q)", "test": "binding, ITC, reverse mode", "endpoint": "ΔH", "value": "-5.65 ± 0.21 kcal/mol"}
{"SMILES": "CN(CC(=O)O)C(=N)N", "test": "binding, equilibrium dialysis LC-MS", "conditions": "5 µM, thermostabilized A2AR-BRIL construct", "scale": "relative to: no-protein control, direction not given", "endpoint": "z-scored log2 fold change", "value": 0.131}
{"SMILES": "O=C1CCC(N2C(=O)C=C(Nc3cccc(-c4cn(CCc5ccc(C(F)(F)F)c(Cl)c5)nn4)c3)C2=O)C(=O)N1 (stereo not shown)", "target or system": "ZBTB11/CRBN", "test": "protein degradation, degrader, HiBiT luminescence", "system": "MOLT-4", "endpoint": "Dmax", "value": "26%"}
{"SMILES": "[2H]c1cc(C)c(NC(=O)c2cnc(Nc3cc(N4CCCCC4)nc(C)n3)s2)c(Cl)c1", "target or system": "CSF1R (Homo sapiens, UniProt P07333)", "conditions": "0.01 µM", "endpoint": "inhibition", "value": "> 90%"}
{"SMILES": "CCCCC[C@H](O)/C=C/[C@H]1[C@H](O)CC(=O)[C@@H]1C/C=C\\CCCC(=O)O", "target or system": "CYSLTR2 (Homo sapiens, UniProt Q9NS75)", "test": "GloSensor", "system": "HEK293T", "conditions": "1 nM", "endpoint": "time to peak cAMP", "value": "≤ 120 min"}
{"SMILES": "CSCC[C@H](NC(=O)[C@@H]1CCCN1C(C)=O)C(=O)N[C@@H](C)C(=O)N[C@@H](CO)C(=O)N[C@@H](CC(=O)O)C(=O)N1CCC[C@H]1C(=O)N[C@@H](CC(C)C)C(=O)NCC(=O)N[C@H](C(=O)N[C@H](C(=O)N[C@@H](CCCNC(=N)N)C(=O)N1CCC[C@H]1C(=O)N[C@@H](CCCNC(=N)N)C(=O)N[C@@H](C)C(=O)N[C@@H](CCCNC(=N)N)C(=O)N[C@@H](C)C(=O)NCCCC[C@H](NC(=O)[C@H](C)NC(=O)[C@H](CCCNC(=N)N)NC(=O)[C@H](C)NC(=O)[C@H](CCCNC(=N)N)NC(=O)[C@@H]1CCCN1C(=O)[C@H](CCCNC(=N)N)NC(=O)[C@@H](NC(=O)[C@@H](NC(=O)CNC(=O)[C@H](CC(C)C)NC(=O)[C@@H]1CCCN1C(=O)[C@H](CC(=O)O)NC(=O)[C@H](CO)NC(=O)[C@H](C)NC(=O)[C@H](CCSC)NC(=O)[C@@H]1CCCN1C(C)=O)C(C)C)C(C)C)C(=O)NCCC(=O)N[C@@H](CCCCNC(=O)CCOCCOCCOCCOCCNC(=O)CCCC[C@@H]1SC[C@@H]2NC(=O)N[C@@H]21)C(N)=O)C(C)C)C(C)C", "target or system": "MDM2", "test": "biolayer interferometry", "conditions": "concentration not given, together with: MDM2 7.8-1000 nM", "endpoint": "binding", "value": "no binding"}
{"SMILES": "[O-][S+]1CCCCS1 (stereo not shown)", "target or system": "SOD1 (Homo sapiens, UniProt P00441, G94A)", "test": "intact protein LC-MS", "system": "SOD1 G93A transgenic mice, whole blood", "conditions": "intravenous, 10 mg/kg, 48 h", "endpoint": "target engagement", "value": "20% and 21.4%"}
{"SMILES": "[H]/N=C(/N)NCC(=O)O", "target or system": "SLC6A6 (Homo sapiens, UniProt P31641, G62A)", "test": "binding, microscale thermophoresis", "conditions": "31.3 µM, room temperature, together with: 50 nM labelled protein", "scale": "higher = more binding", "endpoint": "normalised MST signal", "value": 0.0303}
{"SMILES": "CCCN(CCC)S(=O)(=O)c1ccc(C(=O)O)cc1", "target or system": "Trpv2 (Rattus norvegicus, UniProt Q9WUD2)", "test": "calcium influx, agonist, Fura-2 fluorescence", "system": "Pichia pastoris membrane vesicles", "endpoint": "Hill coefficient", "value": 2.1}
{"SMILES": "NCCCC[C@H](N)C(=O)Nc1ccc2ccccc2c1", "target or system": "rat neuron-specific aminopeptidase", "test": "substrate", "endpoint": "Km", "value": "5 µM"}
{"SMILES": "CCCCc1cn2c(N)nc3ccccc3c2n1", "target or system": "TLR7 (Homo sapiens, UniProt Q9NYK1)", "test": "reporter gene, agonist, NF-κB reporter", "system": "HEK-Blue TLR7", "endpoint": "EC50", "value": "inactive"}
{"SMILES": "CC[C@@H]1[C@H](F)C(=O)N[C@@H]1COc1nccc2cc(C(N)=O)c(OC)cc12", "target or system": "TP53RK (Homo sapiens, UniProt Q96S44)", "test": "ATP probe binding, KiNativ profiling, measured: ATP loop probe site", "system": "THP-1 cell lysate", "conditions": "0.04 mM", "endpoint": "inhibition", "value": "5.2%"}
{"SMILES": "Cc1nc(CSc2nc(SCc3ccc(C(C)C)cc3)nc(=O)[nH]2)cs1", "target or system": "TOP2A (Homo sapiens, UniProt P11388)", "test": "DNA cleavage", "conditions": "7.8 µM, replicate 2", "endpoint": "linear DNA", "value": "0%"}
{"SMILES": "CCCC[C@H](NC(=O)[C@H](Cc1c[nH]c2ccccc12)N(C)C(=O)C1(O)C[C@H](O)[C@@H](NC(C)=O)[C@H]([C@H](O)[C@H](O)CO)O1)C(=O)N[C@@H](CC(=O)O)C(=O)N[C@@H](Cc1cccc(Br)c1)C(N)=O (stereo partly shown)", "target or system": "CCKBR (Homo sapiens, UniProt P32239)", "test": "β-arrestin2 over calcium, agonist, PRESTO-Tango and calcium", "scale": "relative to: CCK8s balanced agonist, higher = more β-arrestin2 biased", "endpoint": "bias factor", "value": "2 and 1.98 and 1.94 and 1.91"}
{"SMILES": "Nc1ccn([C@H]2C[C@H](O)[C@@H](CO)O2)c(=O)n1", "target or system": "deoxyribonucleoside phosphotransferase I (Trichomonas vaginalis)", "test": "substrate", "conditions": "together with: p-nitrophenylphosphate 100 mM", "endpoint": "Km", "value": "2350 ± 380 µM"}
{"note": "Repeated from above:"}
{"SMILES": "C=CC(=O)N1CCC(COCC(=O)N2CCN(c3nc(-c4cnc(N)nc4C(F)F)nc(N4CCOC[C@@H]4C)n3)CC2)CC1", "target or system": "NLK", "test": "KINOMEscan", "conditions": "1 µM", "endpoint": "remaining binding", "value": "100%"}
{"SMILES": "Cc1c(Cl)c(=O)oc2cc(OCCCCSC#N)ccc12", "target or system": "CA12 (Homo sapiens, UniProt O43570)", "test": "stopped-flow CO2 hydration", "scale": "relative to: Ki CA II over Ki CA XII", "endpoint": "selectivity ratio", "value": "> 1690"}
{"SMILES": "NCCS(=O)(=O)O", "test": "binding, equilibrium dialysis LC-MS", "conditions": "5 µM, thermostabilized A2AR-BRIL construct", "scale": "relative to: no-protein control, direction not given", "endpoint": "z-scored log2 fold change", "value": 0.201}
